Published values collected from several papers.
Lines come from different studies, so protocols differ. Several values in a cell are separate wells, animals, samples, runs or records. ± gives the spread as reported.
Astl: Astacin-like metalloendopeptidase (Astl, Mus musculus, UniProt Q6HA09)
UniProt Q6HA09, sequence (whole entry, looked up): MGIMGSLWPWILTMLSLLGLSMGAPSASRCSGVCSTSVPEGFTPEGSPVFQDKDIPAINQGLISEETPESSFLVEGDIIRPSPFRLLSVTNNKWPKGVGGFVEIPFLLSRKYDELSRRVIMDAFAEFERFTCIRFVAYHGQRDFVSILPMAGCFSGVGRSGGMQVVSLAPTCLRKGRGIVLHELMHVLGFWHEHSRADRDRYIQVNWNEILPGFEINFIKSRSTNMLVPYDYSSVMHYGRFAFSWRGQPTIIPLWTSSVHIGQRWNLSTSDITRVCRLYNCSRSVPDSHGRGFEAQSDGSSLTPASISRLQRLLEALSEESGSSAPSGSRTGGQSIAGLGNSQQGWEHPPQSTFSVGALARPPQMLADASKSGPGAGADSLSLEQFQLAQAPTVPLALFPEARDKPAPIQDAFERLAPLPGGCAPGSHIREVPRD
IL1RL2: Interleukin-1 receptor-like 2 (IL1RL2, Homo sapiens, UniProt Q9HB29)
UniProt Q9HB29, sequence (whole entry, looked up): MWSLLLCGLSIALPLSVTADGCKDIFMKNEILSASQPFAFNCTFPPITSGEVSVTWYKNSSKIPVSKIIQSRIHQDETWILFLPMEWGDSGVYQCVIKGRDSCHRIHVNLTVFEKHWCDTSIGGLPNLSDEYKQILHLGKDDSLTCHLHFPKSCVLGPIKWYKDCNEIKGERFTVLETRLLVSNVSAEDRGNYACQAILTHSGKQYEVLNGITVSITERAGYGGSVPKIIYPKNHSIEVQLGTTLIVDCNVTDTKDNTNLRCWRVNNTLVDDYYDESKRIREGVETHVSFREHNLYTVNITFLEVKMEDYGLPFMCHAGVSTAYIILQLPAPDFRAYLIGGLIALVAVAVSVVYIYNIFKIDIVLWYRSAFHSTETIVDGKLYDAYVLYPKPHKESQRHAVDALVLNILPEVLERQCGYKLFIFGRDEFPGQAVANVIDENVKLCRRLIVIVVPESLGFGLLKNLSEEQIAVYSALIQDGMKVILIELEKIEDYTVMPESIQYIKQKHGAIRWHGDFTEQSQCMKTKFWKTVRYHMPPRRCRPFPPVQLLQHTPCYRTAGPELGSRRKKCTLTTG
rhodesain: Rhodesain (rhodesain, Trypanosoma brucei rhodesiense, UniProt Q95PM0)
UniProt Q16539, sequence (whole entry, looked up): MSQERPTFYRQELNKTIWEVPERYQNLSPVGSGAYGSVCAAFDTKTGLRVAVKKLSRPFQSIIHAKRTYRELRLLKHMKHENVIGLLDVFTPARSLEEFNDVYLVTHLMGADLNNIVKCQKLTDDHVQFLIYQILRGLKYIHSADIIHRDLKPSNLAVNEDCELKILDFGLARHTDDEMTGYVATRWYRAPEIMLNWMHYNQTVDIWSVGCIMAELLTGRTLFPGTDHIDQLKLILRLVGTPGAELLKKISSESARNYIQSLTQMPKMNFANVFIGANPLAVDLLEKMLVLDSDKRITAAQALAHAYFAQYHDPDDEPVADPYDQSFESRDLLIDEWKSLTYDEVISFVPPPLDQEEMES
UniProt P12821, sequence (whole entry, looked up): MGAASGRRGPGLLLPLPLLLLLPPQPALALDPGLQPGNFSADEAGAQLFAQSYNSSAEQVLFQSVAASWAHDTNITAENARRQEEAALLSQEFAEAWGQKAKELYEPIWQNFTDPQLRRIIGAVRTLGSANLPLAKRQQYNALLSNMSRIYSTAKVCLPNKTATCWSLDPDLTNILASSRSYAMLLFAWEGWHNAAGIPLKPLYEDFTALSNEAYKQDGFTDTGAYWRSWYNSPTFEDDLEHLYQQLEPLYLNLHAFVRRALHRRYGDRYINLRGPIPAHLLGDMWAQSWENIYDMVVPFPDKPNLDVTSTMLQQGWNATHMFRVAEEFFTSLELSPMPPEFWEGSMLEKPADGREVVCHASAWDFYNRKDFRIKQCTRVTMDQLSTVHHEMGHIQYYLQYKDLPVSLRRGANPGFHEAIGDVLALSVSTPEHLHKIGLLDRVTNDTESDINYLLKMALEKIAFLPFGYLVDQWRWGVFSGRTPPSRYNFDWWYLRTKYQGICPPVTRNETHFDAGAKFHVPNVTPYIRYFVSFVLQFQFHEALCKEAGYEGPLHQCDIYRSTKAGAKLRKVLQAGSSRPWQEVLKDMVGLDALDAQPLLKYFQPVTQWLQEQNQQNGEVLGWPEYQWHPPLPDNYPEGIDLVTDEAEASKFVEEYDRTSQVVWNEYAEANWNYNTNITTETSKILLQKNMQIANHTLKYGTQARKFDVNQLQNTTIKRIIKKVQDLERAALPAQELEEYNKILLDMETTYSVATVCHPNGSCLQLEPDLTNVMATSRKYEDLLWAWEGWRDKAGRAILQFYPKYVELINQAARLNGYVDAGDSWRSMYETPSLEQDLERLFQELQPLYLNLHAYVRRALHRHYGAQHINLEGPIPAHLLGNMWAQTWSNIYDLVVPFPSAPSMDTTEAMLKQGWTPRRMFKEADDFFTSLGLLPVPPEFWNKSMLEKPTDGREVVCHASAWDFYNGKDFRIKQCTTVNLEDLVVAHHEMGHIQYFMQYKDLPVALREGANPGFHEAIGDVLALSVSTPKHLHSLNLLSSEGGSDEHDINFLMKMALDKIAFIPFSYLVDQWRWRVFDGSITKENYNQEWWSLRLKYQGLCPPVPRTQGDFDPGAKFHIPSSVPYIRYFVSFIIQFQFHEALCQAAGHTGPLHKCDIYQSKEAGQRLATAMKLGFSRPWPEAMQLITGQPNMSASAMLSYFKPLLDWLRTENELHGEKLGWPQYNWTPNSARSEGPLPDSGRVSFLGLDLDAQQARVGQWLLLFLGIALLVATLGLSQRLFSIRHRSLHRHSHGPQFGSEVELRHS
UniProt Q6V1X1, sequence (whole entry, looked up): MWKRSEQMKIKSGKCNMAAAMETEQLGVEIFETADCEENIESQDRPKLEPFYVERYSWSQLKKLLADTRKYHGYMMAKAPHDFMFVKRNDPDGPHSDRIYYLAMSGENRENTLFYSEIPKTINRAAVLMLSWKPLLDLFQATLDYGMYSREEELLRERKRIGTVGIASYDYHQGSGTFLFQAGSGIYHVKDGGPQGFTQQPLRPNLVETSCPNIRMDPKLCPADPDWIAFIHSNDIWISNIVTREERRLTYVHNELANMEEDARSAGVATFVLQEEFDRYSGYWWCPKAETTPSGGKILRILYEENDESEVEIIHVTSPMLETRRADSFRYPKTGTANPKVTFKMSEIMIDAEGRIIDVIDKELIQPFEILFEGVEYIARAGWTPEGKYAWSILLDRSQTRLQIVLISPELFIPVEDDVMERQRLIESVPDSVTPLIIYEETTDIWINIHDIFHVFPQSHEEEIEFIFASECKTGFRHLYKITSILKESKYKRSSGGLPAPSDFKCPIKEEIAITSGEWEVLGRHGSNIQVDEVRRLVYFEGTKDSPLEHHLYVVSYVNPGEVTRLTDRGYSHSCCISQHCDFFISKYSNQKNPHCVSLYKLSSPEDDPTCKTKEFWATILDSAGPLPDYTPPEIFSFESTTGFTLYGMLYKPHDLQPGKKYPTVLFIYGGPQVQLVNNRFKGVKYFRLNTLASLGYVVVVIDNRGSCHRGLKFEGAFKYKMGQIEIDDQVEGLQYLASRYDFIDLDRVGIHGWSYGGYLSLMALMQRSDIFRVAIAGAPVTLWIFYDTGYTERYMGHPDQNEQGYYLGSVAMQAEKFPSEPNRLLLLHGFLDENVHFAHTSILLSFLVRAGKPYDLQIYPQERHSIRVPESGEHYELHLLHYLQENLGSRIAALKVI
UniProt P35968, sequence (whole entry, looked up): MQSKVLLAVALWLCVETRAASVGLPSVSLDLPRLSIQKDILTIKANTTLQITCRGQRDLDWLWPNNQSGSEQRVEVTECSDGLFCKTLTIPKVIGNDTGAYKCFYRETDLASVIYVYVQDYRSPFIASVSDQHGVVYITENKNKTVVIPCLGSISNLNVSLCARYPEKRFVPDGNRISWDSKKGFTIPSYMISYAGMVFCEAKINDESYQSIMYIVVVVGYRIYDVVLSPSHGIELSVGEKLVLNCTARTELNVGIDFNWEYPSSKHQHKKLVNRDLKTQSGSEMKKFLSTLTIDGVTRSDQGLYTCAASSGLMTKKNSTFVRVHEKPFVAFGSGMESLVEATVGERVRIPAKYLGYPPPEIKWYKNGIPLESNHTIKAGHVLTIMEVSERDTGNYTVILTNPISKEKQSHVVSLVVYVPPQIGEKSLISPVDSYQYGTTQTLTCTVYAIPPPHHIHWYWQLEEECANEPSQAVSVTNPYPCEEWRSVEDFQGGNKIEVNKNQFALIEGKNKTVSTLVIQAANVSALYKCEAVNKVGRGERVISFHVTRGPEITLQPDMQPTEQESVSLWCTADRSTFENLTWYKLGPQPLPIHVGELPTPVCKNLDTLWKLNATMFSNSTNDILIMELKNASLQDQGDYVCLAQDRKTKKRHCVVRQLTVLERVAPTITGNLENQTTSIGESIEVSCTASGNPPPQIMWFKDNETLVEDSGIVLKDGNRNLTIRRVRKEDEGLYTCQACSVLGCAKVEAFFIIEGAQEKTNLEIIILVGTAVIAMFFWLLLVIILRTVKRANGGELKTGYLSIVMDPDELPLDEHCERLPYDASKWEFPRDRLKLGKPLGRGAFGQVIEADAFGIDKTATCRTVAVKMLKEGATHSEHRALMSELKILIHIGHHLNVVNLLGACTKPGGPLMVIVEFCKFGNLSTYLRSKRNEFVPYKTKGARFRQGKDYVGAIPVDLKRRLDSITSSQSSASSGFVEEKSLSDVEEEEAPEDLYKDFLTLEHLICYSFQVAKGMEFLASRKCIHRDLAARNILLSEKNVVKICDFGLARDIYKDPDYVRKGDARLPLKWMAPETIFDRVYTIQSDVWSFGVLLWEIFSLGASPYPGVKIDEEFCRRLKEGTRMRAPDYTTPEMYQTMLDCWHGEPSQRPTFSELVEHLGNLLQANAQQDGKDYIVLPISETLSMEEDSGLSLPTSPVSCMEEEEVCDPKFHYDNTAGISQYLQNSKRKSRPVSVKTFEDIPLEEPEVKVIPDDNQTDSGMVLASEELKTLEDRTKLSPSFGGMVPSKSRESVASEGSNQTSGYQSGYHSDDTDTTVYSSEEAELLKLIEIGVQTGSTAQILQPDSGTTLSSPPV

Structure (SMILES) | tested on | assay | system | setting | how to read | quantity | value
COc1ccccc1-c1ccncc1C(=O)Nc1nnc(OCc2ccc(Cl)cc2)s1 | Bifunctional 3'-5' exonuclease/ATP-dependent helicase WRN, residues 500-946 (WRN, Homo sapiens, UniProt Q14191) | ATPase activity, ADP-Glo | – | 0.06 µM | reference: 0 µM cpd | remaining activity | 109%
CC(=O)N1c2ccc(-c3ccc(CNC(=O)c4cn5cc(-c6cnc(N)nc6)nc(N6CCOCC6)c5n4)cc3)cc2CC[C@@H]1C | ATM (Homo sapiens, UniProt Q13315) | enzyme activity, inhibitor, radiometric | – | 10 µM | – | remaining activity | 95%
O=C(CN(Cc1ccccc1)Cc1cccc(C(=O)O)c1)NO | Astl | enzyme activity, inhibitor, fluorogenic | – | 5 µM | – | remaining activity | 75 ± 1%
CN(Cc1cc(C2CC2)on1)C(=O)c1cccc(-c2ccc3c(c2)CCO3)c1 | acetoacetyl-CoA synthetase (Cryptococcus neoformans) | enzyme activity, inhibitor | – | 15.6 µM | – | remaining activity | 96.8%
COC1CN([C@H]2CC[C@H]([C@@]3(C)Oc4c(Cl)cc(C(=O)NCc5c(SC)cc(C)[nH]c5=O)c(C)c4O3)CC2)C1 | – | RNA-seq, measured: MMP8 | human, whole blood | dose not given, 24 h | reference: pretreatment baseline | log2 fold change | 2.26
N#Cc1cnc2sc(C(=O)O)cc2c1N1CCc2[nH]nc(C(=O)N[C@@H](CC(=O)NCCOCCN3CCOCC3)c3cccc(Br)c3)c2C1 | IL1RL2 | SEAP reporter gene, antagonist | HEK-Blue IL-36R cells | 0.046 µM, 6 h, together with: IL-36β 0.003 ng/mL | reference: untreated | remaining activity | 103%
O=C(CCN(Cc1cccnc1)Cc1ccc(Cl)c(O)c1F)NO | Astl | enzyme activity, inhibitor, fluorogenic | – | 0.25 µM | – | remaining activity | 75 ± 5%
C[C@](C(=O)NC1CCOCC1)(c1cncnc1)N(C(=O)[C@H](F)Cl)c1ccc(OC(F)(F)Cl)cc1 | ACE (Homo sapiens, UniProt P12821) | enzyme activity, inhibitor | – | 10 µM | – | remaining activity | 103%
COC(=O)[C@@]1(C)C=C(C(=O)Nc2cccc(C(=O)Nc3ccc(Nc4nccc(-c5cccnc5)n4)c(C)c3)c2)C(=O)CC1 | MAPK14 (Homo sapiens, UniProt Q16539) | enzyme activity, inhibitor | – | 14.81 µM, unit not given | reference: vehicle | remaining activity | 0.718 and 0.554 and 0.569
O=C(CCN(Cc1cccnc1)Cc1cccnc1)NO | Astl | enzyme activity, inhibitor, fluorogenic | – | 0.25 µM | – | remaining activity | 98 ± 5%
COC(=O)CN1CCCc2cc3cc(C(=O)NC(Cc4cccc(Cl)c4)C(=O)NCC=CS(=O)(=O)c4ccccc4)c(=O)oc3cc21 (stereo not shown) | rhodesain | enzyme activity, inhibitor, fluorescence | – | 5 µM | – | remaining activity | 31%
CCC1(CC)C(=O)N(c2cccc(CN3CCN(Cc4ccc(Br)cc4)CC3)c2)C1=O | Dipeptidyl peptidase 8 (Homo sapiens, UniProt Q6V1X1) | enzyme activity, inhibitor | – | 5 µM | – | remaining activity | 10%
N#Cc1ccc(CN(CCC(=O)NO)Cc2ccc(C#N)cc2)cc1 | Astl | enzyme activity, inhibitor, fluorogenic | – | 5 µM | – | remaining activity | 21 ± 2%
COC(=O)CN1CCCc2cc3cc(C(=O)NC(Cc4ccc(C)cc4)C(=O)NCC=CS(=O)(=O)c4ccccc4)c(=O)oc3cc21 (stereo not shown) | rhodesain | enzyme activity, inhibitor, fluorescence | – | 5 µM | – | remaining activity | 12%
Cc1cc(NC(=O)c2cccc(NC(=O)/C(C#N)=C/C(C)(C)C)c2)ccc1Nc1nccc(-c2cccnc2)n1 | Mitogen-activated protein kinase 8, phosphorylated (MAPK8, Homo sapiens, UniProt P45983) | enzyme activity after dialysis, inhibitor | – | 10 µM, 4 days, unit not given | reference: no inhibitor | remaining activity | 0.816
COc1ccc(NC(=O)c2c(Nc3ccccc3)sc(C(=O)N/N=C/c3ccc(OC)c(OC)c3)c2NC(C)=O)cc1 | KDR (Homo sapiens, UniProt P35968) | enzyme activity, inhibitor | – | 0.1 µM | – | remaining activity | 81.3%
CC(C)[C@@H]1NC(=O)[C@H](Cc2ccccc2)NC(=O)CSC[C@@H](C(N)=O)NC(=O)[C@H](CCC(=O)O)NC(=O)[C@H](CO)NC(=O)[C@H](Cc2c[nH]c3cccc(Cl)c23)NC(=O)[C@H](C2CCCCC2)NC(=O)[C@H](C(C)C)NC(=O)[C@H](Cc2ccc(O)cc2)NC(=O)[C@H](CC(=O)O)NC(=O)[C@H](Cc2c[nH]c3ccccc23)NC(=O)[C@H](Cc2ccc(N)nc2)NC(=O)[C@H](Cc2c[nH]c3ccc(Cl)cc23)NC(=O)[C@H](CCC(=O)O)NC1=O | IL1RL2 | reporter gene (SEAP), inhibitor, HEK-Blue IL-36R reporter | HEK-Blue IL-36R cells | 0.41 µM, 6 h, together with: IL-36γ 0.1 ng/mL | – | remaining activity | 7.9%
O=C(CCN(Cc1cccc(C(=O)O)c1)Cc1cccc(C(=O)O)c1)NO | Astl | enzyme activity, inhibitor, fluorogenic | – | 5 µM | – | remaining activity | 26 ± 3%
Cc1cnc2nc1Nc1cccc(c1)COC/C=C/COCc1cc(ccc1OCCN1CCOCC1)N2 | EGFR (Homo sapiens, UniProt P00533, T790M) | – | – | concentration not given | reference: untreated control | remaining activity | 100%
